Published values collected from several papers.
Each line is one published result; not all experiments were run side by side. Values joined by “and” are separate records of one study, mostly repeats; a detail may differ. ± marks the error that the study gave.

SMILES = CCCCNCCO.O=C(O)C(Cl)Cl; tested on = Chenopodium album; test = herbicidal activity; conditions = 15 mg/mL, 21 days, post-emergence greenhouse; quantity = inhibition; result = 0%
SMILES = CN(C)CCCSC(=S)N1CCN(C(=O)/C=C/c2coc3ccccc3c2=O)CC1; tested on = CMV; test = virus inactivation; conditions = 500 µg/mL; quantity = inhibition; result = 71% and 80% and 79%
SMILES = O=c1[nH]cc(C(c2cccc(Cl)c2)c2c[nH]c(=O)[nH]c2=O)c(=O)[nH]1; tested on = HIV-1 subtype C; test = p24 antigen production, p24 ELISA; conditions = 125 µg/mL; quantity = inhibition; result = 63%
SMILES = C[N+]1=C2C=C(NCCc3c[nH]c4ccccc34)C(=O)c3[nH]cc(c32)CC1; tested on = Saccharomyces cerevisiae; test = cell growth, liquid culture; system = BY4741; conditions = 100 µM, 24 h; quantity = inhibition; result = 62.3%
SMILES = O=C(NN(c1ccccc1)c1ccccc1)c1ccc([N+](=O)[O-])o1; tested on = Trypanosoma cruzi; test = reporter mRNA translation, inhibitor, measured: capped polyadenylated Renilla luciferase mRNA; system = cell-free extract; conditions = concentration not given; how to read = baseline: control RNA; quantity = relative translation; result = 103%
SMILES = COc1ccc(CNc2nc([C@H]3CC[C@H](C(=O)O)CC3)nc3sc4ccccc4c23)cc1Cl; tested on = Cryptosporidium parvum; test = parasite growth, immunofluorescence imaging; system = HCT-8, Iowa; conditions = 74.1 nM; quantity = inhibition; result = -21.8% and -13.6%
SMILES = COc1ccccc1CN1CC(C(=O)NCCN(C)CCc2ccccc2)CCC1=O (stereo not shown); tested on = Trypanosoma cruzi; test = reporter mRNA translation, inhibitor, measured: capped polyadenylated Renilla luciferase mRNA; system = cell-free extract; conditions = concentration not given; how to read = baseline: control RNA; quantity = relative translation; result = 120%
SMILES = Cc1ccccc1C(c1c[nH]c(=O)[nH]c1=O)c1c[nH]c(=O)[nH]c1=O; tested on = HIV-1 subtype C; test = p24 antigen production, p24 ELISA; conditions = 7.8 µg/mL; quantity = inhibition; result = < 25%
SMILES = O=Cn1nnc2ccccc21; test = reaction with N-acetyl-lysine, HPLC-MS; conditions = pH 10.2, with: N-α-acetyl-lysine; quantity = pseudo-first-order rate constant; result = 0 h⁻¹
SMILES = C[N+](C)(C)CCO.O=C([O-])C(Cl)Cl; tested on = Chenopodium album; test = herbicidal activity; conditions = 15 mg/mL, 21 days, pre-emergence greenhouse; quantity = inhibition; result = 0%
SMILES = O=c1[nH]cc(C(c2ccc(Cl)cc2)c2c[nH]c(=O)[nH]c2=O)c(=O)[nH]1; tested on = HIV-1 subtype C; test = p24 antigen production, p24 ELISA; conditions = 500 µg/mL; quantity = inhibition; result = 83%
SMILES = CCCC[C@@H]1NC(=O)[C@@H](CC(C)C)NC(=O)[C@H](CCCCNC(=O)CN2CCN(CC(=O)O)CCN(CC(=O)O)CC2)NC(=O)[C@@H](CO)NC(=O)[C@H](Cc2c[nH]cn2)NC(=O)[C@@H](Cc2c[nH]c3ccccc23)NC1=O [copper-64 labelled]; system = Balb/c mice, plasma; conditions = intravenous, dose not given; quantity = tissue uptake; result = 0.37 ± 0.05 %ID/g
SMILES = CC(O)CNCC(C)O.O=C(O)C(Cl)Cl (stereo not shown); tested on = Chenopodium album; test = herbicidal activity; conditions = 15 mg/mL, 21 days, post-emergence greenhouse; quantity = inhibition; result = 0%

A few entries again:
SMILES = Cc1ccccc1C(c1c[nH]c(=O)[nH]c1=O)c1c[nH]c(=O)[nH]c1=O; tested on = HIV-1 subtype C; test = p24 antigen production, p24 ELISA; conditions = 7.8 µg/mL; quantity = inhibition; result = < 25%
